Experimental data pooled from the literature.
Protocols differ between the studies behind these lines.
Organism: Escherichia coli

Compound	assay	system	conditions	MIC
CCCCCCCCCc1nc2cc(Cl)ccc2c(=O)n1CCN	–	MG1655	–	> 100 µM
COc1cc(C(=O)O)ccc1NC(=O)c1ccc(NC(=O)c2ccc(NC(=O)[C@H](Cc3c[nH]nn3)NC(=O)c3ccc(NC(=O)/C(C)=C/c4ccc(O)cc4)cc3)cc2)cc1	broth microdilution	ciprofloxacin-sensitive	–	0.25 µg/mL
COc1ccc2ccc(O)c(/C=N/[C@H]3CCCC[C@H]3/N=C/c3ccc(C)cc3O)c2c1	microbial growth, broth dilution	–	–	> 40 µM
COc1nc(C(=O)Nc2ccc(C(=O)O)nc2OC)ccc1NC(=O)c1ccc(NC(=O)[C@H](Cc2c[nH]nn2)NC(=O)c2ccc(NC(=O)/C(C)=C/c3ccc(O)cc3)cc2)cc1	broth microdilution	ciprofloxacin-resistant	–	8 µg/mL
CC[C@H]1OC(=O)[C@H](C)[C@@H](OC(=O)Cc2ccc([N+](=O)[O-])cc2)[C@H](C)[C@@H](O[C@@H]2O[C@H](C)C[C@H](N(C)C)[C@H]2O)[C@](C)(OC)C[C@@H](C)C(=O)[C@H](C)[C@@H](O)[C@]1(C)O	–	tolC	–	2 µg/mL
COc1ccc2ccc(O)c(/C=N/[C@H]3CCCC[C@H]3/N=C/c3cc(C(C)(C)C)cc(C(C)(C)C)c3O)c2c1	microbial growth, broth dilution	–	clinical isolate	> 40 µM
Cn1nc(COC(=O)c2ccccc2)c(=O)c2c(=O)[nH]c(N)nc21	microbial growth, broth dilution	BW25113	18 h	50 µg/mL
CCOc1c(NC(=O)c2ccc(NC(=O)[C@H](Cc3c[nH]nn3)NC(=O)c3ccc(NC(=O)/C(C)=C/c4ccc(O)cc4)cc3)cc2)ccc(C(=O)Nc2ccc(C(=O)O)c(O)c2OC)c1O	broth microdilution	DSM 1116	–	0.031 µg/mL
CCCCCCCC(=O)N[C@@H](CCN)C(=O)N[C@H](C(=O)N[C@@H](CCN)C(=O)N[C@H]1CCNC(=O)[C@H]([C@@H](C)O)NC(=O)[C@H](CCN)NC(=O)[C@H](CCN)NC(=O)[C@H](CC(C)C)NC(=O)[C@@H](Cc2ccccc2)NC(=O)[C@H](CCN)NC1=O)[C@@H](C)O	broth microdilution	ATCC 25922, colistin-susceptible	–	0.25 µg/mL
CCOc1c(NC(=O)c2ccc(NC(=O)c3ccc(NC(=O)[C@H](Cc4c[nH]nn4)NC(=O)c4ccc(NC(=O)/C(C)=C/c5ccc(O)cc5)cc4)cc3)c(OCC)c2O)ccc(C(=O)O)c1O	broth microdilution	ciprofloxacin-resistant	–	0.031 µg/mL
CC[C@H]1OC(=O)[C@H](C)[C@@H](OC(=O)Cc2c(F)cc([N+](=O)[O-])cc2F)[C@H](C)[C@@H](O[C@@H]2O[C@H](C)C[C@H](N(C)C)[C@H]2O)[C@](C)(OC)C[C@@H](C)C(=O)[C@H](C)[C@@H](O)[C@]1(C)O	–	DSM 30083	compound alone	128 µM
CCCCCCCCCC(=O)Oc1c(C)c(OC)c2c(c1C)OC(=O)C(CCCCCCCC)C2(O)C=Cc1ccccc1 (stereo not shown)	microbial growth, broth dilution	ATCC25922	–	5000 µg/mL
Cn1nc(C(=O)O)c(=O)c2c(=O)[nH]c(N)nc21	microbial growth, broth dilution	BW25113	18 h	> 100 µg/mL
CC1(C)[C@H](NC(=O)/C(=N\OCC(=O)N2CCC(C(=O)O)C2)c2nsc(N)n2)C(=O)N1OS(=O)(=O)O (stereo partly shown)	agar dilution	16-1, ESBL-producing	–	4 µg/mL
C/C(=C\c1ccc(O)cc1)C(=O)Nc1ccc(C(=O)N[C@@H](Cc2c[nH]nn2)C(=O)Nc2ccc(C(=O)Nc3ccc(C(=O)Nc4ccc(C(=O)O)cc4)c(O)c3)cc2)cc1	broth microdilution	ciprofloxacin-sensitive	–	0.125 µg/mL
C=CCO/N=C(\C(=O)N[C@@H]1C(=O)N(S(=O)(=O)O)[C@H]1C)c1csc(N)n1	microbial growth, agar dilution	ATCC25	–	0.25 µg/mL
CN[C@H](CC(C)C)C(=O)N[C@H]1C(=O)N[C@@H](CC(N)=O)C(=O)N[C@H]2C(=O)N[C@H]3C(=O)N[C@H](C(=O)N[C@H](C(=O)O)c4cc(O)cc(O)c4-c4cc3ccc4O)[C@H](O)c3ccc(c(Cl)c3)Oc3cc2cc(c3O[C@@H]2O[C@H](CO)[C@@H](O)[C@H](O)[C@H]2O[C@H]2C[C@](C)(NCc3ccc(OCc4cn(CC(=O)N[C@H](C(=O)N[C@@H](CCN)C(=O)N[C@H]5CCNC(=O)[C@H]([C@@H](C)O)NC(=O)[C@H](CCN)NC(=O)[C@H](CCN)NC(=O)[C@H](CC(C)C)NC(=O)[C@@H](CC(C)C)NC(=O)[C@H](CCN)NC5=O)[C@@H](C)O)nn4)c(OC)c3)[C@H](O)[C@H](C)O2)Oc2ccc(cc2Cl)[C@H]1O	broth microdilution	ATCC 35218, cation-adjusted Mueller-Hinton broth	18 to 20 h, 37 °C, 0.002% polysorbate 80	16 µg/mL

Compound	assay	system	conditions	MIC
COc1c(NC(=O)c2ccc(NC(=O)c3ccc(NC(=O)[C@H](CC#N)NC(=O)c4ccc(NC(=O)/C(C)=C/c5ccc(O)cc5)cc4)cc3)c(OC)c2O)ccc(C(=O)O)c1O	microbial growth, broth dilution	BW25113	–	0.063 µg/mL
CCCCCCCCn1cc[n+](CCCCOc2cc(OCCCC[n+]3ccn(CCCCCCCC)c3)cc(OCCCC[n+]3ccn(CCCCCCCC)c3)c2)c1.[Br-].[Br-].[Br-]	–	MC4100	–	0.5 µM
COc1cc2c(cc1OC)-c1cc3ccc(OC)c(OC)c3c[n+]1CC2.[Cl][Fe-]([Cl])([Cl])[Cl]	–	–	24 h, 37 °C	> 800 µM
c1ccc(CN2CCOCCOCCN(CCCCCCCCCCCCN3CCOCCOCCN(CCCCCCCCCCCCN4CCOCCOCCN(Cc5ccccc5)CCOCCOCC4)CCOCCOCC3)CCOCCOCC2)cc1	–	tetracycline-resistant (pBR322)	–	5 µM
COc1cc(C(=O)Nc2ccc(C(=O)O)c(O)c2OC)ccc1NC(=O)c1ccc(NC(=O)[C@H](Cc2c[nH]nn2)NC(=O)c2ccc(NC(=O)/C(C)=C/c3ccc(O)cc3)cc2)cc1	broth microdilution	ciprofloxacin-sensitive	–	0.25 µg/mL
CCCCCCCCCCCC[N+](C)(C)CCCCCCCCOc1cc(OCCCCCCCC[N+](C)(C)CCCCCCCCCCCC)cc(OCCCCCCCC[N+](C)(C)CCCCCCCCCCCC)c1.[Br-].[Br-].[Br-]	–	MC4100	–	32 µM
C#CCOc1ccc(CN[C@@]2(C)C[C@H](O[C@H]3[C@H](Oc4c5cc6cc4Oc4ccc(cc4Cl)[C@@H](O)[C@@H](NC(=O)[C@@H](CC(C)C)NC)C(=O)N[C@@H](CC(N)=O)C(=O)N[C@H]6C(=O)N[C@H]4C(=O)N[C@H](C(=O)N[C@H](C(=O)N[C@@H](CCCNC(=N)N)C(N)=O)c6cc(O)cc(O)c6-c6cc4ccc6O)[C@H](O)c4ccc(c(Cl)c4)O5)O[C@H](CO)[C@@H](O)[C@@H]3O)O[C@@H](C)[C@H]2O)cc1OC	broth microdilution	ATCC 25922	18 to 20 h	16 µg/mL
COc1nc(C(=O)Nc2ccc(C(=O)O)c(O)c2OC)ccc1NC(=O)c1ccc(NC(=O)[C@H](Cc2c[nH]nn2)NC(=O)c2ccc(NC(=O)/C(C)=C/c3ccc(O)cc3)cc2)cc1	broth microdilution	ciprofloxacin-resistant	–	0.25 µg/mL
COc1c(C)c(O)c(C(=O)C=Cc2ccccc2)c(OC)c1C	microbial growth, broth dilution	ATCC25922	–	5000 µg/mL
CC[C@H]1OC(=O)[C@H](C)[C@@H](OC(=O)Cc2ccc(C(F)(F)F)cc2)[C@H](C)[C@@H](O[C@@H]2O[C@H](C)C[C@H](N(C)C)[C@H]2O)[C@](C)(OC)C[C@@H](C)C(=O)[C@H](C)[C@@H](O)[C@]1(C)O	–	tolC	–	16 µg/mL
CC[C@H](C)[C@H](NC(=O)[C@@H](CCCNC(=N)N)NC(=O)[C@H](CCCNC(=N)N)NC(=O)[C@@H]1CCCN1C(=O)[C@@H]1CCCN1C(=O)[C@H](CCCCN)NC(=O)[C@@H]1CCCN1C(=O)[C@H](CCCNC(=N)N)NC(=O)[C@@H]1CCCN1C(=O)[C@H](CC(C)C)NC(=O)[C@H](Cc1ccc(O)cc1)NC(=O)[C@@H]1CCCN1C(=O)[C@@H]1CCCN1C(=O)[C@H](CCCCN)NC(=O)[C@H](CC(=O)O)NC(=O)[C@@H](N)C(C)C)C(=O)N[C@@H](Cc1ccc(O)cc1)C(=O)N[C@@H](CC(N)=O)C(=O)N[C@H](CCCNC(=N)N)C(N)=O	broth microdilution	BW25113	18 h, 37 °C, 25% MHB2	8 µg/mL
C#CCNC(=O)C1(O/N=C(\C(=O)N[C@@H]2C(=O)N(OS(=O)(=O)O)C2(C)C)c2csc(N)n2)CC1	agar dilution	16-1 ESBL	–	2 µg/mL
CN[C@H](CC(C)C)C(=O)N[C@H]1C(=O)N[C@@H](CC(N)=O)C(=O)N[C@H]2C(=O)N[C@H]3C(=O)N[C@H](C(=O)N[C@H](C(=O)N[C@@H](CCCNC(=N)N)C(N)=O)c4cc(O)cc(O)c4-c4cc3ccc4O)[C@H](O)c3ccc(c(Cl)c3)Oc3cc2cc(c3O[C@@H]2O[C@H](CO)[C@@H](O)[C@H](O)[C@H]2O[C@H]2C[C@](C)(NCc3ccc(OCc4cn(CC(=O)N[C@H](C(=O)N[C@@H](CCN)C(=O)N[C@H]5CCNC(=O)[C@H]([C@@H](C)O)NC(=O)[C@H](CCN)NC(=O)[C@H](CCN)NC(=O)[C@H](CC(C)C)NC(=O)[C@@H](CC(C)C)NC(=O)[C@H](CCN)NC5=O)[C@@H](C)O)nn4)c(OC)c3)[C@H](O)[C@H](C)O2)Oc2ccc(cc2Cl)[C@H]1O	broth microdilution	ATCC 35218, cation-adjusted Mueller-Hinton broth	18 to 20 h, 37 °C, 0.002% polysorbate 80	8 µg/mL
CC[C@H]1OC(=O)[C@H](C)[C@@H](OC(=O)Cc2ccccc2[N+](=O)[O-])[C@H](C)[C@@H](O[C@@H]2O[C@H](C)C[C@H](N(C)C)[C@H]2O)[C@](C)(OC)C[C@@H](C)C(=O)[C@H](C)[C@@H](O)[C@]1(C)O	microbial growth	ATCC25922	–	> 32 µg/mL
CCC(CC)c1cc(CCN2CCCNCC2)nc(-c2ccccn2)n1	microbial growth, broth dilution	ATCC25922	–	> 64 µg/mL
COC(C(N)=O)C(NC(=O)c1ccc(NC(=O)c2ccc(C#N)cc2)cc1)C(=O)Nc1ccc(C(=O)Nc2ccc(C(=O)Nc3ccc(C(=O)O)cc3)c(O)c2OC(C)C)cc1 (stereo not shown)	–	BW25113 wild type	–	0.2 µg/mL
N=C(N)NCCC[C@@H]1NC(=O)[C@H](CCCNC(=N)N)NC(=O)[C@@H](CCCNC(=N)N)NC(=O)[C@@H](CCCNC(=N)N)NC(=O)[C@@H](C(c2ccccc2)c2ccccc2)NC(=O)[C@@H](Cc2c[nH]c3ccccc23)NC(=O)[C@@H](C(c2ccccc2)c2ccccc2)NC1=O	–	ATCC 25922	–	16 µg/mL
